Published values collected from several papers.
Lines come from different studies, so protocols differ. Several values in a cell are separate wells, animals, samples, runs or records.
LCK: Tyrosine-protein kinase Lck (LCK, Homo sapiens, UniProt P06239)

Cc1cccc(O[C@H]2CCC[C@@H](C(C)CNCc3ccncc3)C2)c1 (relative stereo) — inhibition (LCK; enzyme activity, inhibitor; 10 µM): -7%
Cc1cccc(-c2ccc3nc(NC(=O)C4CCOCC4)nn3c2)c1 — remaining activity (LCK; enzyme activity, Dundee kinase panel; 10 µM): 80%
COc1ccc(NC(=O)Nc2ccc3c(c2)C(=O)N(C(C)CO)CC(C)C(CN(C)Cc2ccc4c(c2)OCO4)O3)cc1 (stereo not shown) — remaining activity (LCK; kinase activity; 0.03 µM; baseline: control): 90%
Cc1cnc2nc1Nc1cccc(c1)COC/C=C/COCc1cc(ccc1OCCN1CCOCC1)N2 — remaining binding (LCK; binding; 0.1 µM): 45%
Nc1ncc2c(n1)-c1c([nH]c3ccc(C4=CCOCC4)cc13)CCC2 — remaining binding (LCK; binding, competition with immobilised ligand; 1 µM): 100%
COc1cc(Nc2nccc(-c3cnn4nc(OC)ccc34)n2)cc(C(F)(F)F)c1 — remaining binding (LCK; binding, competition with immobilised ligand; 1 µM): 98%
COc1ncc2nc(C)n(Cc3ncc(S(N)(=O)=O)cc3F)c2c1-c1ccccc1 — inhibition (LCK; enzyme activity, inhibitor; 10 µM, safety panel): -17.2%
COc1cc(-n2cc3cc(F)cc(C(N)=O)c3n2)cc(Cl)c1C1CC(O)(CCO)Cc2ccccc21 (stereo not shown) — inhibition (LCK; enzyme activity, inhibitor; 10 µM): 6.63%
c1ccc2c(Nc3cc(C4CCC4)[nH]n3)nc(Nc3ccc4nc[nH]c4c3)nc2c1 — remaining activity (LCK; enzyme activity, inhibitor; 0.25 µM): 1%
COCC12C(=O)NC3C4(C(OC)CC1O)C1CC5(O)C(OC)C(O)C(OC(C)=O)(C1C5OC(=O)c1ccccc1)C3(O)C(OC)C24 (stereo not shown) — remaining activity (LCK; kinase activity, inhibitor, ProQinase kinase profiling; 25 µM; baseline: control): 102% and 95%
O=C=[N][Ru-4]123([n]4c5ccc(O)cc5c5c6c(c7cc(F)c[n+]1c7c54)C(=O)NC6=O)[S+]1CC[S+]2CC[S+]3CC1 (stereo not shown) — remaining activity (LCK; enzyme activity; 100 nM, human enzyme, with: 10 µM ATP; baseline: untreated): 105%
NC(=O)[C@@H](O)C[C@H]1CCc2sc3ncnc(O[C@H]4CC[C@H](N5CCOCC5)CC4)c3c21 — inhibition (LCK; enzyme activity, inhibitor; 10 µM): 72%
C=CC(=O)Nc1cccc(-c2cnc3[nH]cc(C(=O)NC(C)(C)C)c3n2)c1 — inhibition (LCK; kinase activity; 0.1 µM): 13% and 12%
COc1c(Cl)cccc1Nc1c(-c2ccncc2C#C[C@@]2(C)CCCN2C(=O)/C=C/CN(C)C)[nH]c2c1C(=O)NCC2 — remaining binding (LCK; binding, competition with immobilised ligand; 3 µM): 38%
CCn1cc(C(=O)O)c(=O)c2c(N)c(F)c(NC3CCCCC3)cc21 — inhibition (LCK; kinase activity; 0.1 µM, with: ATP at Km): 1.5%
CC(C)=CC1OC(C)(C)C2C=C3C(=O)C(Cl)=CC(O)C3C3C(O)C4OC4C(=O)C132 (stereo not shown) — remaining binding (LCK; cell-free assay, competition with immobilised ligand; 10 µM): 97%
CNC(=O)C[C@H](Cc1ccc(C#N)cc1)NC(=O)c1cc(-c2ccc(CN[C@H](C)c3ccc(C)cc3)o2)ccc1Cl — activity vs control (LCK; enzyme activity, inhibitor; 1 µM): 95%
CCN1CCN(Cc2ccc(NC(=O)c3ccc(C)c(NC(=O)c4cncc(-c5cccs5)c4)c3)cc2C(F)(F)F)CC1 — remaining binding (LCK; binding, competition with immobilised ligand; 1 µM): 1%
C=CC(=O)N1CCc2ccc(-n3c(=O)ccc4cnc5ccc(-c6cnn(C)c6)cc5c43)cc21 — remaining binding (LCK; KINOMEscan; 1 µM; baseline: DMSO control): 100%
Cc1cccc(-c2ccc3nc(NC(=O)C4CCCCC4)nn3c2)c1 — remaining activity (LCK; enzyme activity, Dundee kinase panel; 10 µM): 77%
Nc1ncc(-c2cc(-c3cnn(CC(F)(F)F)c3)ncc2F)nc1C(=O)NC1CNCC(F)C1 (stereo not shown) — remaining activity (LCK; enzyme activity; 1 µM; baseline: DMSO control): 95.3%
O=C(Cc1ccc(OCc2ccccc2)cc1)NC1(C(=O)O)CCN(C(=O)c2ccc(-c3cccc(Cl)c3)cc2)CC1 — activity vs control (Tyrosine-protein kinase Lck, phosphorylated (LCK, Homo sapiens, UniProt P06239); enzyme activity, inhibitor; 10 µM): 113%

For quick reference, copied from above:
CNC(=O)C[C@H](Cc1ccc(C#N)cc1)NC(=O)c1cc(-c2ccc(CN[C@H](C)c3ccc(C)cc3)o2)ccc1Cl — activity vs control (LCK; enzyme activity, inhibitor; 1 µM): 95%
CCN1CCN(Cc2ccc(NC(=O)c3ccc(C)c(NC(=O)c4cncc(-c5cccs5)c4)c3)cc2C(F)(F)F)CC1 — remaining binding (LCK; binding, competition with immobilised ligand; 1 µM): 1%
